Experimental data gathered from unrelated publications.
A part holds a random share of what one study measured. Changes are numbered by the printed parent chain.

Set 1
Target: ABI1, truncated, D143A, DHFR fusion (Arabidopsis thaliana, UniProt P49597)
Method: DHFR PCA, dose-response
Matrix: yeast
Notes: Hill fit, not affinity, not high confidence
With: (+)-ABA, dose series
Reading: lower = more sensitive
Parent: PYL1, truncated, DHFR fusion (Arabidopsis thaliana, UniProt Q8VZS8); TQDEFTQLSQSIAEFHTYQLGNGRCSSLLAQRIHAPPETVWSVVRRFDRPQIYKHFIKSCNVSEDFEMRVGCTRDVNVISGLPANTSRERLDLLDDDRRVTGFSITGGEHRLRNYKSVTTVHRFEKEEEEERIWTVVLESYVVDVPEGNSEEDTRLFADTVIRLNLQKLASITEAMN
| Variant | ABA EC50 [µM] |
| --- | --- |
| L166P | 1.7 |
| F47Q | 32.7 |
| K54Q | 1.27 |
| F47D | 10.1 |
| T101D | 28.3 |
| V40R | 60.7 |
| F47H | 5.96 |
| A84I | 0.417 |

Set 2
Target: MAFG, bZIP domain (human)
Method: DHFR protein complementation
Matrix: yeast
Notes: single substitutions, most at no-binding floor
Baseline: wild-type JUN-FOS pair
Reading: higher = stronger binding
Parent: JUN, bZIP domain (human); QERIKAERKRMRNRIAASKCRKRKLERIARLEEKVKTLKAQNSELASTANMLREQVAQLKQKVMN; partner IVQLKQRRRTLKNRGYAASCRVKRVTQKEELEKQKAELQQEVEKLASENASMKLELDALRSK
| Variant | binding fitness |
| --- | --- |
| L52M | -1.44 natural log |
| L38G | -1.5 natural log |
| M51V | -1.41 natural log |
| K39M | -1.44 natural log |
| E44F | -1.45 natural log |
| A40T | -1.41 natural log |
| L45E | -1.46 natural log |
| E33R | -1.45 natural log |

Set 3
Target: NT-3 growth factor receptor (NTRK3, Homo sapiens, UniProt Q16288)
Chain of UniProt Q16288 (whole entry, looked up): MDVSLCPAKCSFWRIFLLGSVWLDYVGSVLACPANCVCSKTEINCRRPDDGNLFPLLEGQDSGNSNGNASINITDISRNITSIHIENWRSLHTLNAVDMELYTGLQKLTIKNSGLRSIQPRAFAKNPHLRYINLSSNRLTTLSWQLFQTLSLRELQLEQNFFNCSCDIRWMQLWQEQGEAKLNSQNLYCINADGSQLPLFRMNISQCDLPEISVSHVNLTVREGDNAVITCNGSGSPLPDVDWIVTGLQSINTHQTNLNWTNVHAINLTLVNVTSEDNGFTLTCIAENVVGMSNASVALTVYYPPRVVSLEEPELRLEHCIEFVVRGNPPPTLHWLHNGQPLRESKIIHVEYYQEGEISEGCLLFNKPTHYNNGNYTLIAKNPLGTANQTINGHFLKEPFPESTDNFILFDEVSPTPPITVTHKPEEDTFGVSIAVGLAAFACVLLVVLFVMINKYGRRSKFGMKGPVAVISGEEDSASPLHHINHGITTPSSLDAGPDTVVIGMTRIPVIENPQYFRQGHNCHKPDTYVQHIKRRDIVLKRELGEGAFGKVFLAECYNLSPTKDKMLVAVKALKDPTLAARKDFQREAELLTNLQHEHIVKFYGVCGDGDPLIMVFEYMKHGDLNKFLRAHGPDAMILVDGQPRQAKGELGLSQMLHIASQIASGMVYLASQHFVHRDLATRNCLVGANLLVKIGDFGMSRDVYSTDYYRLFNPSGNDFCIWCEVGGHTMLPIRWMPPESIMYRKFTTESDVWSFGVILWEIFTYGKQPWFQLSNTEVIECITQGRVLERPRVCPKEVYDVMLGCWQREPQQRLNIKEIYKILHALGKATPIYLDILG
Observed: enzyme activity
Action: inhibitor
Tested at: 0.5 µM
Baseline: control
| SMILES | remaining activity [%] |
| --- | --- |
| COc1ccc(C(=O)Nc2sc3c(c2C(N)=O)CCCC3)cc1OC | 57.8 |
| CCOC(=O)c1c(C)[nH]c(/C=C2\C(=O)Nc3ccccc32)c1C | 27.9 |
| Cc1cccc(-c2[nH]c(C(C)(C)C)nc2-c2ccc3c(c2)OCO3)n1 | 92.4 |
| Cn1sc(=O)n(Cc2ccccc2)c1=O | 107 |

Set 4
Target: Sigma intracellular receptor 2 (TMEM97, Homo sapiens, UniProt Q5BJF2)
Chain of UniProt Q5BJF2 (whole entry, looked up): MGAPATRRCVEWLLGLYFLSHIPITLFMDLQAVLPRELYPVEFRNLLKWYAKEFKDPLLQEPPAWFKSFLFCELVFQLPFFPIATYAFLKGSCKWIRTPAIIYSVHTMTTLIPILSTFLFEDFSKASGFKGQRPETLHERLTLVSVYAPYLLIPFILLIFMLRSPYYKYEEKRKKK
Observed: binding
Method: radioligand binding
Tested at: 10 µM
| Compound | inhibition [%] |
| --- | --- |
| CC(=O)Nc1c(F)cc(C(=O)N[C@H]2CC[C@H](O)CC2)cc1O[C@@H](C)c1ccccc1 | -0.94 |
| Cc1c[nH]c2nccc(Oc3c(F)cc(Nc4cc(Cl)nc(N)n4)cc3F)c12 | 31.9 |
| O=C(Nc1cnc(Oc2ccc(F)cc2)nc1)N1CCc2ncccc2[C@@H]1c1ccc(F)cc1 | 53.2 |
| CCCOc1ccc([C@H]2[C@H](C(=O)O)[C@@H](c3ccc4c(c3)OCO4)CN2CC(=O)Nc2c(CC)cccc2CC)cc1 | -7.1 |

For quick reference, copied from above (set 2):
| Variant | binding fitness |
| --- | --- |
| E33R | -1.45 natural log |
| L38G | -1.5 natural log |
| M51V | -1.41 natural log |
